Measurements from different studies.
Protocols differ between the studies behind these lines. ± marks the error that the study gave.
Aminopeptidase N: Aminopeptidase N (Neisseria meningitidis, UniProt Q9JYV4)

Compound | target | assay | test system | conditions | scale | endpoint | result
CC[C@H](C)[C@H](NC(=O)[C@H](CC(N)=O)NC(=O)[C@H](CCC(=O)O)NC(=O)[C@H](CCC(=O)O)NC(=O)[C@H](CCC(=O)O)NC(=O)[C@H](CC(N)=O)NC(=O)[C@H](CCCNC(=N)N)NC(=O)[C@@H]1CCCN1C(=O)[C@H](CCCCN)NC(=O)[C@@H](NC(=O)[C@@H](NC(=O)[C@H](C)NC(=O)[C@H](CC(=O)O)NC(=O)[C@H](CCSC)NC(=O)[C@@H]1CCCN1C(=O)[C@H](CCC(=O)O)NC(=O)[C@H](C)NC(=O)[C@H](Cc1ccc(OP(=O)(O)O)cc1)NC(=O)[C@H](CC(=O)O)NC(=O)[C@H](CO)NC(=O)[C@@H]1CCCN1C(=O)[C@H](CC(=O)O)NC(C)=O)C(C)C)C(C)C)C(=O)N[C@@H](Cc1ccc(OP(=O)(O)O)cc1)C(=O)N[C@@H](CO)C(=O)N[C@H](C(=O)N1CCC[C@H]1C(=O)N[C@@H](Cc1c[nH]cn1)C(=O)N[C@@H](CC(=O)O)C(=O)N[C@@H](CO)C(N)=O)C(C)C | Ras GTPase-activating protein 1, SH2-SH3-SH2 region (RASA1, Homo sapiens, UniProt P20936, C236S/C261S/C372S/C402S) | isothermal titration calorimetry | – | concentration not given, pH 8.0, with: doubly phosphorylated p190RhoGAP peptide | – | binding stoichiometry | 0.6 ± 0.1
CC(=O)N[C@H]1[C@H]([C@H](O)[C@H](O)CO)O[C@@](OCCCNC(=O)OCc2ccccc2)(C(=O)O)C[C@@H]1O[C@H]1O[C@H](CO[C@]2(C(=O)O)C[C@H](O)[C@@H](NC(C)=O)[C@H]([C@H](O)[C@H](O)CO)O2)[C@H](O)[C@H](O)[C@H]1O | siaD (Neisseria meningitidis, UniProt O33390) | substrate | – | with: UDP-Gal | – | Km | 890 ± 100 µM
Cn1cc(-c2cccc(CN3CCC4(CC3)COc3c4ccc4c3CN([C@H]3CCC(=O)NC3=O)C4=O)c2)cn1 | Ikzf2/Crbn (Mus musculus, UniProt P81183+Q8C7D2, I391V) | – | mouse Crbn I391V, thymus | oral, 10 mg/kg single dose, 6 h | – | degradation | 62%
COC(=O)c1ccccc1CN(CCC(C)C)c1nc(C#N)nc(N2CCOCC2)n1 | CPL (Toxoplasma gondii, UniProt Q6DMN0) | enzyme activity, inhibitor | – | – | relative to: human over Toxoplasma IC50 | selectivity ratio | 0.7
CC(=O)NC(Cc1ccc(Br)c(Cl)c1)C(=O)N[C@@H](C)C(=O)N1CCC[C@H]1C(=O)N1CCC[C@H]1C(=O)N[C@@H](CCC(=O)O)C(=O)N[C@@H](Cc1c[nH]cn1)C(=O)N[C@@H](CO)C(=O)N[C@H](C(=O)N[C@@H](C)C(N)=O)[C@@H](C)OP(=O)(O)O (some centres unmarked) | Glycogen synthase kinase-3 beta (GSK3B, Homo sapiens, UniProt P49841) | enzyme activity, inhibitor | – | 10 µM | – | inhibition | 0.81%
CS(C)(=O)=Nc1ccc(-c2ccc(-c3nc4cc(O[C@@H]5CO[C@H]6[C@@H]5OC[C@H]6O)[nH]c4cc3F)cc2)cc1 | PRKAB2/PRKAA1, with gamma3 subunit (Homo sapiens, UniProt O43741+Q13131) | enzyme activity, activator | – | 60 min, 50% above basal activity, with: ATP 50 µM | – | EC150 | 0.95 nM
CN1CCN(C(=O)N[C@@H](Cc2ccccc2)C(=O)N[C@H](/C=C/S(=O)(=O)c2ccccc2)CCc2ccccc2)CC1 | Cathepsin K (CTSK, Homo sapiens, UniProt P43235) | inactivator | – | pH 5.5, 25 °C, with: Z-LR-AMC | – | kinact | 0.022 ± 0.004 s⁻¹
CN(C)CCCSC(=S)N1CCN(C(=O)/C=C/c2coc3ccccc3c2=O)CC1 | Nucleoprotein (N, Tomato spotted wilt virus, UniProt P25999, R94A/Y184A) | microscale thermophoresis | – | – | relative to: mutant over wild type | affinity loss | 180 fold
CC(=O)N[C@H]1C(O)O[C@H](CO)[C@@H](O[C@@H]2O[C@H](CO)[C@H](O)[C@H](O)[C@H]2O)[C@@H]1O (some centres unmarked) | Galectin-3 (LGALS3, Homo sapiens, UniProt P17931) | binding, isothermal titration calorimetry | – | – | – | –ΔG | 6.1 kcal/mol
CCN(Cc1ccccc1)C(=O)CCc1nc(CN2CCN(C(=O)Cc3ccc(OC)c(OC)c3)CC2)no1 | Potassium voltage-gated channel subfamily KQT member 4 (KCNQ4, Homo sapiens, UniProt P56696) | potassium current, whole-cell patch clamp | CHO, stable | 10 nM | – | activation V1/2 | -19 ± 1.14 mV
CC[C@H](C)[C@@H]1NC(=O)C(NC(=O)[C@H](C)NC(=O)[C@H](CCC(=O)O)NC(C)=O)CCCC=CCCCC(C(=O)N[C@@H](CCC(N)=O)C(=O)N[C@@H](CCC(N)=O)C(=O)N[C@@H](CC(C)C)C(=O)N[C@@H](CC(C)C)C(=O)N[C@@H](Cc2ccccc2)C(=O)N[C@H](C(=O)N[C@@H](Cc2c[nH]cn2)C(=O)N[C@@H](Cc2ccccc2)C(=O)N[C@@H](CCCNC(=N)N)C(=O)N[C@H](C(=O)NCC(N)=O)[C@@H](C)CC)[C@@H](C)CC)NC(=O)[C@H]([C@@H](C)CC)NC(=O)[C@H](CCCNC(=N)N)NC1=O (some centres unmarked) | HIV-1 integrase and DNA substrate | DNA binding, gel retardation | – | 2 h, 37 °C, with: radiolabelled oligonucleotide DNA | – | minimum DNA retardation concentration | 37 µM
CC(=O)NCC(=O)NCC(=O)N[C@@H](Cc1ccc(OP(=O)(O)O)cc1)C(=O)NCC(=O)NCC(N)=O | Phospholysine phosphohistidine inorganic pyrophosphate phosphatase (LHPP, Homo sapiens, UniProt Q9H008) | enzyme activity | – | concentration not given, 90 min, pH 7.8, with: substrate 100 µM | – | substrate hydrolysis | 3.34%
COC(=O)c1ccc(OC(=O)C2CCN(C(=O)OC(C)(C)C)CC2)cc1 | ATP-dependent Clp protease proteolytic subunit (clpP, Staphylococcus aureus, UniProt Q2G036) | enzyme activity, inhibitor | – | – | – | inhibitory concentration | < 1 µM
Nc1nc2c([C@@H]3O[C@@H]4COP(=O)(O)O[C@H]5[C@@H](O)[C@H](n6cnc7c(=O)[nH]c(N)nc76)O[C@@H]5COP(=O)(O)O[C@H]4[C@H]3O)scc2c(=O)[nH]1 | Cyclic di-GMP phosphodiesterase RocR (rocR, Pseudomonas aeruginosa, UniProt Q9HX69) | substrate, HPLC | – | 10 µM, with: 100 nM enzyme | – | cleavage rate constant k2 | 5 ± 0.57 s⁻¹
CC(C)C[C@H](NC(=O)[C@H](C)NC(=O)[C@H](C)NC(=O)[C@H](C)NC(=O)[C@H](C)NC(=O)[C@@H](NC(=O)[C@H](CC(C)C)NC(=O)[C@H](CCCCN)NC(=O)[C@H](CCC(=O)O)NC(=O)[C@@H](NC(=O)[C@H](CO)NC(=O)CN)C(C)C)[C@@H](C)O)C(=O)N[C@@H](CCC(N)=O)C(=O)N[C@@H](CCCNC(=N)N)C(=O)N[C@@H](CC(C)C)C(=O)N[C@@H](CCCCN)C(=O)N[C@@H](CC(N)=O)C(=O)N[C@@H](CCC(=O)O)C(=O)N[C@@H](CCCNC(=N)N)C(=O)N[C@@H](Cc1c[nH]cn1)C(=O)N[C@@H](CCC(=O)O)C(=O)N[C@@H](CCC(=O)O)C(=O)N[C@@H](C)C(=O)N[C@@H](CCC(=O)O)C(=O)N[C@@H](CC(C)C)C(=O)N[C@@H](CCC(=O)O)C(=O)N[C@@H](CCCNC(=N)N)C(=O)N[C@@H](CC(C)C)C(=O)N[C@@H](CCCCN)C(=O)N[C@@H](CO)C(=O)N[C@@H](CCC(=O)O)C(=O)N[C@@H](Cc1ccc(O)cc1)C(=O)O | Plasminogen (PLG, Homo sapiens, UniProt P00747, C188G/E240D/L256Y) | binding, SPR | – | pH 7.4 | – | koff | 0.0967 s⁻¹
CC(=O)/C(C#N)=C/c1cccc(C(N)=O)c1 | Genome polyprotein, 3C protease (Human enterovirus D68, UniProt Q68T42, C1641Y/I1565V/I1594T/R1603K/Y1579H) | ITC | enterovirus D68 | 25 °C, with: DTT 10 mM | – | -TΔS | -16.7 kJ/mol
NC(=O)Cc1cc(=O)oc2cc(NC(=O)[C@@H](N)CCOCc3ccccc3)ccc12 | Aminopeptidase N | enzyme activity, substrate | – | pH 7.5, 37 °C | – | Km | 147 ± 7.9 µM
CCCCCCCCP(=O)(Oc1ccccc1)O[C@@H]1O[C@H](CO)[C@@H](O)[C@H](O)[C@H]1F (some centres unmarked) | Lysosomal acid glucosylceramidase (GBA1, Homo sapiens, UniProt P04062) | enzyme activity, irreversible inhibitor | – | pH 5.5, 37 °C, with: 2,4-dinitrophenyl beta-D-glucopyranoside | – | kinact/Ki | 160 min⁻¹ mM⁻¹
CC12CC3CC(C)(C1)CC(NC(=O)Nc1ccc(C(=O)N4CCC[C@H](C(N)=O)C4)cc1F)(C3)C2 | Bifunctional epoxide hydrolase 2 (EPHX2, Homo sapiens, UniProt P34913) | – | – | – | – | lipophilic ligand efficiency | 7.49
CSCC[C@H](N)C(=O)Nc1ccc2c(CC(N)=O)cc(=O)oc2c1 | Aminopeptidase N | enzyme activity, substrate | – | pH 7.5, 37 °C | – | Km | 80.7 ± 0.8 µM
CCCc1cc(Cc2ccccc2)cc2c1NCCC2NC(=O)C(N)Cc1c(C)cc(O)cc1C (centres unmarked) | Delta-type opioid receptor (Oprd1, Rattus norvegicus, UniProt P33533) | GTPγS binding, agonist | C6 cells expressing DOR | – | relative to: DPDPE at 10 µM | maximal stimulation | 36%
CC(C)C[C@@H]1NC(=O)[C@H](CCCNC(=N)N)NC(=O)[C@H](CCCCN)NC(=O)[C@H](CC(=O)O)NC(=O)[C@H](C)NC(=O)[C@@H](CO)NC1=O | Disintegrin and metalloproteinase domain-containing protein 8 (Homo sapiens, UniProt P78325) | ADAM8 dimerisation | PANC-1 | 500 nM | – | FRET/FLIM efficiency | no effect
Cc1ncsc1-c1ccc(CNC(=O)[C@@H]2C[C@@H](O)CN2C(=O)[C@@H](NC(=O)CCCCCCCCC(=O)N2CCN(c3ncc(-c4cc(NC(=O)c5ccc(F)cc5C(F)(F)F)c(N5C[C@@H](C)N(C)[C@@H](C)C5)cc4F)cn3)CC2)C(C)(C)C)cc1 | WD repeat protein WDS (Spodoptera frugiperda, UniProt A0A2H1VC02) | protein degradation, degrader, targeted LC-MS | Sf9 | – | – | Dmax | 37%

For quick reference, copied from above:
Compound | target | assay | test system | conditions | scale | endpoint | result
CSCC[C@H](N)C(=O)Nc1ccc2c(CC(N)=O)cc(=O)oc2c1 | Aminopeptidase N | enzyme activity, substrate | – | pH 7.5, 37 °C | – | Km | 80.7 ± 0.8 µM
CC(C)C[C@@H]1NC(=O)[C@H](CCCNC(=N)N)NC(=O)[C@H](CCCCN)NC(=O)[C@H](CC(=O)O)NC(=O)[C@H](C)NC(=O)[C@@H](CO)NC1=O | Disintegrin and metalloproteinase domain-containing protein 8 (Homo sapiens, UniProt P78325) | ADAM8 dimerisation | PANC-1 | 500 nM | – | FRET/FLIM efficiency | no effect
CCCCCCCCP(=O)(Oc1ccccc1)O[C@@H]1O[C@H](CO)[C@@H](O)[C@H](O)[C@H]1F (some centres unmarked) | Lysosomal acid glucosylceramidase (GBA1, Homo sapiens, UniProt P04062) | enzyme activity, irreversible inhibitor | – | pH 5.5, 37 °C, with: 2,4-dinitrophenyl beta-D-glucopyranoside | – | kinact/Ki | 160 min⁻¹ mM⁻¹
